Results of several laboratories.
Each line is one published result; not all experiments were run side by side.
Target: Interleukin-1 receptor-associated kinase 1 (IRAK1, Homo sapiens, UniProt P51617)
Sequence of UniProt P51617 (whole entry, looked up): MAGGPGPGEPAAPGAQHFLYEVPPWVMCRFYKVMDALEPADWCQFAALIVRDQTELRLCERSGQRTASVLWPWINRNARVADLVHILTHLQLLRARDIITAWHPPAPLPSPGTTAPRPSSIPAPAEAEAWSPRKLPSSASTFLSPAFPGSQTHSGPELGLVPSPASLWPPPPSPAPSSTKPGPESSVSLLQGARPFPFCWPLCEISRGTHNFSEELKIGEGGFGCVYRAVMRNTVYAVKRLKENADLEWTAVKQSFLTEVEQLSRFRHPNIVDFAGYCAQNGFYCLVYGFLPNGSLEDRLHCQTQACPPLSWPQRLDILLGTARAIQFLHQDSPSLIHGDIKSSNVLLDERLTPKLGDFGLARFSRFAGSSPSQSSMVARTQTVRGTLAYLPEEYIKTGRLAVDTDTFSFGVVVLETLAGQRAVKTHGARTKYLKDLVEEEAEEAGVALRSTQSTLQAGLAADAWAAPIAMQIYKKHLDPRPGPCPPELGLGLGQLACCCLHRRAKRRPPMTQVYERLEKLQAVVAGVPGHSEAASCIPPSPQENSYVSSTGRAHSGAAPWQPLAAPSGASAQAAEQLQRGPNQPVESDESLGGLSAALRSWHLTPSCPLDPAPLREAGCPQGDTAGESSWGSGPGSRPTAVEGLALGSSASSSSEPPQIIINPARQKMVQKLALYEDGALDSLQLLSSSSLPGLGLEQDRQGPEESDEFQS

For `COc1cc(N2CCN(C)CC2)ccc1Nc1nc(N)n(C(=O)NCc2ccccc2S(=O)(=O)C(C)C)n1`, the remaining activity was 25% (enzyme activity; 10 µM; relative to: control).
`CC[C@@H]1[C@H](F)C(=O)N[C@@H]1COc1nccc2cc(C(N)=O)c(OC)cc12` gave an inhibition of 2.3% (ATP-site probe binding, ActivX profiling; THP-1 cell lysate; 0.01 mM, Lys2 site).
With `C=CC(=O)N1CCC(COCC(=O)N2CCN(c3nc(-c4cnc(N)nc4C(F)F)nc(N4CCOC[C@@H]4C)n3)CC2)CC1` the remaining binding was 100% (KINOMEscan; 1 µM).
For `COc1cc(-c2cncc3c2CN(C)Cc2cc(N4CCNCC4)ccc2-3)cc(OC)c1OC`, the remaining activity was 106% (kinase activity; 1 µM, human enzyme, with: ATP 10 µM; relative to: DMSO control).
For `COc1cc(N2CCN(C)CC2)ccc1Nc1nc(N)n(C(=O)NCc2c(Cl)cccc2Cl)n1`, the remaining activity was 7.4% (enzyme activity; 10 µM; relative to: control).
For `CNc1ncc2c(/C=C/C(=O)N3CCC(OC)CC3)nn(Cc3cccc(C(F)(F)F)c3)c2n1`, the remaining activity was 106% (kinase activity, inhibitor; 1 µM; relative to: untreated control).
For `C=CC(=O)N1CCC[C@@H](n2nc(-c3ccc(Oc4ccccc4)cc3)c3c(N)ncnc32)C1`, the remaining activity was 259% (0.1 µM).
`O=C(NC1CCC1)c1ccc2nc(-c3cccc(NS(=O)(=O)NCCN4CCCCC4)c3)cn2c1` has a remaining activity of 73% (enzyme activity; 10 µM).

Repeated from above:
For `COc1cc(N2CCN(C)CC2)ccc1Nc1nc(N)n(C(=O)NCc2c(Cl)cccc2Cl)n1`, the remaining activity was 7.4% (enzyme activity; 10 µM; relative to: control).
